Measured values of several laboratories.
Lines come from different studies, so protocols differ. ± marks the error that the study gave.

Nc1nc(-c2ccccc2)nc2[nH]nc(Nc3ccc(F)cc3)c12 gave an IC50 of 3.43 ± 0.97 µM (coxsackievirus B3; plaque formation, plaque reduction; HeLa, Nancy, resistant mutant P1094S).
For O=C(C1CCN(c2nnnn2-c2ccccc2)CC1)N1CCCc2ccccc21, the IC50 was 0.62 µM (Plasmodium falciparum; [3H]hypoxanthine incorporation; K1; 72 h).
With O=[N+]([O-])c1ccc(/C=N/N=C/c2ccc(Br)cc2)o1 the IC50 was 1.15 ± 0.16 µM (Trypanosoma evansi; parasite growth, CellTiter-Glo; Tansui bloodstream form; 72 h).
The IC50 of O=C(/C=C/CBr)O[C@@H]1COC(=O)C1 is reported as 0.24 µM (Vibrio harveyi; quorum sensing bioluminescence, inhibitor; BB120).
CC(C)C[C@@H](N)C(=O)NCC(=O)N[C@H](C)C(=O)N[C@H](CO)C(=O)N[C@H](Cc1c[nH]c2ccccc12)C(=O)N[C@H](Cc1c[nH]cn1)C(=O)N[C@H](CCCNC(=N)N)C(=O)N1CCC[C@@H]1C(=O)N[C@H](CC(=O)O)C(=O)N[C@H](CCCCN)C(=O)NCCCC[C@@H](NC(=O)[C@H]1CCCN1C(=O)[C@@H](CC(C)C)NC(=O)[C@H]1CCCN1C(=O)[C@@H](CCCNC(=N)N)NC(=O)[C@@H](CCCCN)NC(=O)[C@@H](CCC(N)=O)NC(=O)[C@@H](Cc1ccc(O)cc1)NC(=O)CNC(=O)[C@@H](CC(C)C)NC(=O)[C@@H](CS)NC(=O)[C@@H](CS)NC(=O)[C@@H](CCCCN)NC(=O)[C@@H](CC(=O)O)NC(=O)[C@H]1CCCN1C(=O)[C@@H](CCCNC(=N)N)NC(=O)[C@@H](Cc1c[nH]cn1)NC(=O)[C@@H](Cc1c[nH]c2ccccc12)NC(=O)[C@@H](CO)NC(=O)[C@@H](C)NC(=O)CNC(=O)[C@H](N)CC(C)C)C(N)=O has an IC50 of roughly 1 µM (Human immunodeficiency virus 1; viral replication, ELISA; MT4, NL43).
The IC50 of N=C(NO)NN=Cc1cccnc1 is reported as greater than 100 µM (Human alphaherpesvirus 1; plaque formation; Vero; 96 h).
The IC50 of CC(=O)O[C@H]1C[C@@H](C)O[C@H]2O[C@@H]3C[C@@H]4CC[C@@H]5[C@H](CC[C@]6(C)[C@@H](C7=CC(=O)OC7)CC[C@]56O)[C@@]4(C)C[C@H]3O[C@]21O is reported as 0.223 µM (Schistosoma mansoni; microscopic viability score; adult worms; 72 h).
CC(=O)OC[C@H]1O[C@@H](NC(=O)NC(=O)[C@@H](C)Cc2ccc(C(C)C)cc2)[C@H](OC(C)=O)[C@@H](OC(C)=O)[C@@H]1OC(C)=O has an IC50 of 100 µM (Punta Toro virus; cytopathic effect; Vero).
O=C(O)[C@H](CNCCCCCCCCCCCCCc1cccnc1)c1ccccc1 gave an IC50 of 15.6 µg/mL (Hepatitis C virus; viral replication, inhibitor, luciferase; replicon).
With CC(=O)CCC1C(=O)NC(C(C)C)C(=O)NC(Cc2cc(O)cc(F)c2)C(=O)N2CCCC(N2)C(=O)OC(C(C)=CC=CC(=O)N2CCCCO2)CC=CC=CC(O)C(C)C1O (stereo not shown) the IC50 was 0.13 µM (Human immunodeficiency virus 1; viral replication, flow cytometry; HeLa; 48 h).
O=C(/C=C/CI)O[C@@H]1COC(=O)C1 gave an IC50 of 0.13 µM (Vibrio harveyi; quorum sensing bioluminescence, inhibitor; BB120).
With CC(C)=CCC/C(C)=C/CNCCOC1C2CC3CC(C2)CC1C3 (stereo not shown) the IC50 was 1.8 µg/mL (Saccharomyces cerevisiae; microbial growth).
With CC(=O)O[C@@H]1C[C@@H](C)O[C@H]2O[C@@H]3C[C@@H]4CC[C@@H]5[C@H](CC[C@]6(C)[C@@H](C7=CC(=O)OC7)CC[C@]56O)[C@@]4(C=O)C[C@H]3O[C@]21O the IC50 was 0.335 µM (Schistosoma mansoni; microscopic viability score; adult worms; 72 h).

Excerpt of the above:
With CC(C)=CCC/C(C)=C/CNCCOC1C2CC3CC(C2)CC1C3 (stereo not shown) the IC50 was 1.8 µg/mL (Saccharomyces cerevisiae; microbial growth).
